# Published values gathered from unrelated publications.
# Protocols differ between the studies behind these lines. Numbers after ± are the reported error.
SMILES,test,system,setting,how to read,endpoint,value
CN[C@@H]1COc2c(S(=O)(=O)NC(=O)Nc3c4c(cc5c3CCC5)CCC4)cnn2C1,,"human, urine","oral, 300 mg twice daily, 0-12 h, day 7",,fraction excreted in urine,0.148
CN1C[C@H](COc2nccc3c(NCc4ccco4)cc(Cl)nc23)OC1=O,,"rabbit NZW female, isolated Langendorff heart","3 µM, 15 min",,QRS interval,30 ms
CC(C)[C@H](N)C(=O)NCCCS(=O)(=O)O,,"human both sexes, plasma","oral, 256.5 mg twice daily days 2-7, day 7, fed capsule",,AUC(0-12),11100 ng·h/mL
COc1cc(C(=O)N2CCC3(CC2)CC(=O)c2c(cnn2C(C)C)C3)cc(-c2ccc(C(=O)O)cc2)n1,item: HDL cholesterol,"human, fasting serum","3 mg every 12 h, day 13, adjusted geometric mean",relative to: baseline and placebo,placebo-adjusted change from baseline,-6%
CC[C@H](C)[C@H](NC(=O)[C@H](Cc1ccccc1)NC(=O)[C@H](CCC(=O)O)NC(=O)[C@H](CCCCNC(=O)COCCOCCNC(=O)COCCOCCNC(=O)CC[C@H](NC(=O)CCCCCCCCCCCCCCCCC(=O)O)C(=O)O)NC(=O)[C@H](C)NC(=O)[C@H](C)NC(=O)[C@H](CCC(N)=O)NC(=O)CNC(=O)[C@H](CCC(=O)O)NC(=O)[C@H](CC(C)C)NC(=O)[C@H](Cc1ccc(O)cc1)NC(=O)[C@H](CO)NC(=O)[C@H](CO)NC(=O)[C@@H](NC(=O)[C@H](CC(=O)O)NC(=O)[C@H](CO)NC(=O)[C@@H](NC(=O)[C@H](Cc1ccccc1)NC(=O)[C@@H](NC(=O)CNC(=O)[C@H](CCC(=O)O)NC(=O)C(C)(C)NC(=O)[C@@H](N)Cc1cnc[nH]1)[C@@H](C)O)[C@@H](C)O)C(C)C)C(=O)N[C@@H](C)C(=O)N[C@@H](Cc1c[nH]c2ccccc12)C(=O)N[C@@H](CC(C)C)C(=O)N[C@H](C(=O)N[C@@H](CCCNC(=N)N)C(=O)NCC(=O)N[C@@H](CCCNC(=N)N)C(=O)NCC(=O)O)C(C)C,"QT interval corrected for heart rate, 12-lead Holter ECG",healthy human subjects,"subcutaneous, 1.5 mg once weekly, 30 h post-dose, steady state","relative to: placebo, time-matched baseline",placebo-subtracted change in QTcI,-4.6 ms
Cc1noc(C)c1-c1cc(C(O)(c2ccccn2)c2ccccn2)c2nc(C3CC3)[nH]c2c1,,"human male patients, fasted, plasma","oral, 4 mg once daily, cycle 1 day 8",,Ctau,142 ng/mL
CC(C)(C(=O)N1CCOc2c(C#N)cncc2C1)C(F)F,item: blood and lymphatic disorders,"human, both sexes","oral, 20 mg twice daily, 14 days, multiple ascending dose",,subjects with TEAE,0%
C=CC1(C)CC(OC(=O)CSCCCCCN(C)C)C2(C)C(C)CCC3(CCC(=O)C32)C(C)C1O (stereo not shown),haemolysis,sheep erythrocytes,"1 h, pH 7.5",,HC50,> 128 µg/mL
C=CC(=O)NC1CCN(c2ncc3ncnc(Nc4ccc(Oc5ccc6c(c5)ncn6C)c(C)c4)c3n2)CC1,,healthy male humans,"oral, 240 mg, grade 2",,participants with back pain TEAE,6.3%
O=C(O)CCC(=O)O.[2H]C([2H])([2H])Oc1cc(C)c2[nH]ccc2c1CN1CC[C@@H](C2CC2)C[C@H]1c1ccc(C(=O)O)cc1,,healthy Chinese subjects,"100 mg, single ascending dose",,TEAE hyponatremia,0%
Cc1noc(C)c1Cn1cc(N2C(=O)CN(Cc3cccc(O)c3)C2=O)cn1,,pooled human liver microsomes,"1 µM, 30 min, pH 7.4",,remaining parent,90 % peak area
CC(C)Cc1ccc(CNS(=O)(=O)c2ccccc2C(=O)O)cc1,"colloidal aggregate formation, dynamic light scattering",50 mM potassium phosphate buffer,"200 µM, pH 7.0, 1% DMSO",higher = more aggregation,DLS scattered light intensity,559000 counts/s
CNC(=O)c1cc(Oc2ccc(NC(=O)Nc3cc(C(C)(C)C)nn3-c3ccc4ncccc4c3)c(F)c2)ccn1,item: worst grade 1,human,"oral, dose not given, cycles 1 and 2, Medium Cmax subgroup",,patients with nervous system disorder AE,33%
NC(=O)N1CCc2ccc(NS(=O)(=O)c3cc(Cl)cc(Cl)c3O)cc21,"colloidal aggregate formation, dynamic light scattering",50 mM potassium phosphate buffer,"200 µM, pH 7.0, 1% DMSO",higher = more aggregation,DLS scattered light intensity,550000 counts/s
CCOc1c([C@H](C)n2nc(C)c3c(N)ncnc32)cc(Cl)c(F)c1[C@@H]1CNC(=O)C1,item: QRS ≤100 ms,previously treated B-cell malignancy,"oral, 20 mg once daily, baseline below thresholds",,patients,96.4%
O=C(O)c1occc1S(=O)(=O)NCC1CC(c2ccccc2)C1 (stereo not shown),"colloidal aggregate formation, dynamic light scattering",50 mM potassium phosphate buffer,"200 µM, pH 7.0, 1% DMSO",higher = more aggregation,DLS scattered light intensity,445000 counts/s
C[C@@H](N)C1CCN(S(=O)(=O)c2cccc3cnccc23)CC1,,"healthy volunteers, plasma","oral, 150 mg, fed",,CL/F,3700 L/h
Cc1cc(N2CCc3c(c(C)nn3CC34CCC(NC(=O)[C@@H]5COCCN5)(CC3)CC4)C2)c2cnn(C)c2n1,,"129/Sv mice, blood","oral, 15 mg/kg, 3 h",,blood concentration,710 ± 85 nM
CO[C@H]1CC[C@H](N2C(=O)CNc3ncc(-c4ccc(C(C)(C)O)nc4)nc32)CC1,,"patients, urine","oral, 15 mg, day -1, geometric mean",,urinary excretion Ae(0-24 h),27500 ng
CCN1/C(=C/C(C)=O)Sc2ccc(F)cc21,,cynomolgus monkey,"oral, 100 mg/kg, 24 h post-dose",,QRS duration,35 ± 1 ms
N#Cc1ccc2c(c1)[C@H]1CCCN(C(=O)c3ccc4[nH]cnc4c3)[C@H]1C2,,human,"240 mg, day 7",,mean ACTH level,6.3 pmol/L
Cc1cc(-c2nccc3c2ccn3CC(=O)Nc2ccc(-c3cnccn3)cn2)ccn1,,"human, urine","oral, 20 mg once daily, day 1, geometric mean",,fraction excreted in urine (fe),0.765%
Cc1ccc(N(C)C(=O)/C=C/c2ccco2)cc1,cold plate test,mice,"oral, 30 mg/kg daily for 7 days, 45 min after dose, day 8",,licking latency,20 ± 0.4 s
Cc1cncc(CC(=O)Nc2cccc(Cl)c2O)c1,"colloidal aggregate formation, dynamic light scattering",50 mM potassium phosphate buffer,"200 µM, pH 7.0, 1% DMSO",higher = more aggregation,DLS scattered light intensity,483000 counts/s
Cc1nnc(SCC2=C(C(=O)O)N3C(=O)[C@@H](NC(=O)Cn4cnnn4)[C@H]3SC2)s1,,human whole blood,"concentration not given, 48 h, 4 °C",,deviation from nominal concentration,-1.5%
CNC(=O)c1ccc(-c2cnc3ncc(Cc4ccc5ncccc5c4)n3n2)cc1F,"item: Pruritus, all grades",cancer patients,"oral, dose not given, dose escalation, any causality",,patients with adverse event,13%
C=CC1(C)CC(OC(=O)CSc2ccc(N)cc2)C2(C)C(C)CCC3(CCC(=O)C32)C(C)C1O (stereo not shown),haemolysis,sheep erythrocytes,"1 h, pH 7.5",,HC50,> 128 µg/mL
CC(C)C[C@H](NC(=O)CNC(=O)c1cc(Cl)ccc1Cl)B(O)O,item: Hyponatraemia,human newly diagnosed multiple myeloma,"oral, dose not given, maintenance, grade 3, onset cycle 17 or later",,treatment-emergent adverse events,0%
CNCCOC12CC3(C)CC(C)(CC(Cn4ncc(-c5ccc(N6CCc7cccc(C(=O)Nc8nc9ccccc9s8)c7C6)nc5C(=O)O)c4C)(C3)C1)C2,,"beagle dog, male, anaesthetised","intravenous bolus, 0.03 mg/kg, 120 min",relative to: baseline,dP/dt at 50 change,-10%
O=c1[nH]c(=O)n([C@H]2C[C@H](O)[C@@H](CO)O2)cc1CCCCC[18F],,"tumour-bearing nude mice, blood","intravenous, dose not given, 2 h",,blood activity,0.27 ± 0.2 %ID/g
COc1ccc2c(=O)n(C)c(-c3ccccc3)nc2c1,,"male Sprague-Dawley rat, large intestine","oral, 30 mg/kg, 4 h",,tissue concentration,42500 ng/g
Cc1c(C(=O)O)ccc2c3n(nc12)[C@@H]1[C@H](C3)N(CC2CC2)[C@@]2(C(=O)Nc3cc(Cl)ccc32)[C@H]1c1cccc(Cl)c1F,,human patients phase Ia,"oral, dose not given, all grades, all patients",,gastroesophageal reflux incidence,13%
C=CC(=O)N1CCC(c2ccc(C(N)=O)c(-c3ccc(Oc4ccccc4)cc3)n2)CC1,,relapsed/refractory mantle cell lymphoma patients,"oral, dose not given, part, all doses, CTCAE v4.03",,serious treatment-related AE rate,0%
CCCCC1=NC2(CCCC2)C(=O)N1Cc1ccc(-c2ccccc2S(=O)(=O)Nc2noc(C)c2C)c(COCC)c1,,"healthy adult volunteers, plasma","oral, 200 mg, 14 days repeated dosing, fasted, crushed tablet",,Cmax,5530 ng/mL
CCn1cc(C(=O)N2CCOCC2)c(=O)c2cc(NC3Cc4ccccc4C3)cnc21,,"human, fed","oral suspension, 300 mg/day twice daily, day 1, arithmetic mean",,AUC(0-12),4480 ng·h/mL
O=C(Nc1nc2cccc(-c3ccc(CN4CCS(=O)(=O)CC4)cc3)n2n1)C1CC1,item: ear and labyrinth disorders,human rheumatoid arthritis patients,"oral, 30 mg once daily, 4 weeks, regardless of relatedness",,treatment-emergent adverse events,0%
Cc1ccc([C@@H]2O[C@H](CO)[C@@H](O)[C@H](O)[C@H]2O)cc1Cc1ccc(-c2ccc(F)cc2)s1,,Japanese type 2 diabetes patients,"100 mg, day 17, 24 h urine collection",relative to: baseline,urinary chloride excretion change,-70.2 mEq
